{"data": "Published values gathered from unrelated publications", "UCHL1": "Ubiquitin carboxyl-terminal hydrolase isozyme L1 (UCHL1, Homo sapiens, UniProt P09936)", "RAF1": "RAF proto-oncogene serine/threonine-protein kinase (RAF1, Homo sapiens, UniProt P04049)", "note": "Each line is one published result; not all experiments were run side by side.", "chain of UniProt P09936 (whole entry, looked up)": "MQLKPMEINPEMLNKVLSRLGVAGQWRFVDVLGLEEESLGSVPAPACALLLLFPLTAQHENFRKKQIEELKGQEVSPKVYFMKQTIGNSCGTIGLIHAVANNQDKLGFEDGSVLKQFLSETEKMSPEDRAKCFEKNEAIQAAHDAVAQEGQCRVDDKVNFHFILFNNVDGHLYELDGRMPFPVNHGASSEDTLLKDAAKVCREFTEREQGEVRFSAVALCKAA"}
{"Structure (SMILES)": "CC#CC(=O)NC1CCCN(C(=O)c2cccc(Cl)c2)C1 (stereo not drawn)", "tested on": "UCHL1", "assay": "covalent, intact protein LC-MS", "setting": "12.5 µM", "measurement": "labelling", "value": "13.2%"}
{"Structure (SMILES)": "CNS(=O)(=O)Nc1nccc(Cc2c(C)c3ccc(Oc4ncccn4)cc3oc2=O)c1F", "tested on": "RAF1", "setting": "10 µM", "measurement": "inhibition", "value": "82%"}
{"Structure (SMILES)": "C=CC(=O)N1CCC(COCC(=O)N2CCN(c3nc(-c4cnc(N)nc4C(F)F)nc(N4CCOC[C@@H]4C)n3)CC2)CC1", "tested on": "RAF1", "assay": "KINOMEscan", "setting": "1 µM", "measurement": "remaining binding", "value": "100%"}
{"Structure (SMILES)": "[2H]c1cc(C)c(NC(=O)c2cnc(Nc3cc(N4CCC(O)CC4)nc(C)n3)s2)c(Cl)c1", "tested on": "RAF1", "setting": "0.001 µM", "measurement": "inhibition", "value": "< 50%"}
{"Structure (SMILES)": "O=C(NC1CCC1)c1ccc2nc(-c3cccc(NS(=O)(=O)NCCN4CCCCC4)c3)cn2c1", "tested on": "RAF1", "assay": "enzyme activity", "setting": "10 µM", "measurement": "remaining activity", "value": "100%"}
{"Structure (SMILES)": "COc1cc(F)ccc1-c1ncnc(Nc2cccc(C[S@](C)(=N)=O)c2)n1", "tested on": "RAF1", "assay": "kinase activity", "setting": "10 µM, added: 10 µM ATP", "measurement": "remaining activity", "value": "91%"}
{"Structure (SMILES)": "Cc1cc(Nc2cc(N3CCN(C)CC3)nc(Sc3ccc(NC(=O)C4CC4)cc3)n2)[nH]n1", "tested on": "RAF1", "assay": "kinase activity, KinaseProfiler", "setting": "0.03 µM, species human", "scale": "baseline: control", "measurement": "remaining activity", "value": "95%"}
{"Structure (SMILES)": "O=C(c1ccc([N+](=O)[O-])o1)N1CCc2ccccc2C1", "tested on": "Trypanosoma cruzi", "assay": "reporter translation, Renilla luciferase mRNA translation", "system": "cell-free extract", "setting": "40 µM", "scale": "baseline: DMSO", "measurement": "inhibition", "value": "-12.5%"}
{"Structure (SMILES)": "[2H]c1cc(C)c(NC(=O)c2cnc(Nc3cc(N4CCCCC4)nc(C)n3)s2)c(Cl)c1", "tested on": "RAF1", "setting": "0.01 µM", "measurement": "inhibition", "value": "< 30%"}
{"Structure (SMILES)": "CC/C(=N\\NC(=O)NCc1cccc(O)c1)c1ccc(O)c(C)c1O", "tested on": "RAF1", "assay": "kinase activity", "setting": "0.1 µM", "measurement": "inhibition", "value": "5.5%"}
{"Structure (SMILES)": "NC(=O)CCc1ccc(C(=O)CCl)cc1", "tested on": "UCHL1", "assay": "covalent, intact protein LC-MS", "setting": "12.5 µM", "measurement": "labelling", "value": "12.6%"}
{"Structure (SMILES)": "COc1ccc(-c2ccc3c(N4CCOC[C@@H]4C)nc(N4CCOC[C@@H]4C)nc3n2)cc1COC(=O)CCOCCOCCOCCONC(=O)c1ccc(F)c(F)c1Nc1ccc(I)cc1F", "tested on": "RAF proto-oncogene serine/threonine-protein kinase (RAF1, Homo sapiens, UniProt P04049, Y340D/Y341D)", "assay": "kinase activity, inhibitor", "setting": "2.5 µM", "measurement": "inhibition", "value": "inhibited"}
